Assay results gathered from unrelated publications.
Every numbered part comes from another study and shows a few of its results, in no order. “And” joins repeats or separate records; there may be more than shown.
Chain of UniProt Q9Y6R4 (whole entry, looked up): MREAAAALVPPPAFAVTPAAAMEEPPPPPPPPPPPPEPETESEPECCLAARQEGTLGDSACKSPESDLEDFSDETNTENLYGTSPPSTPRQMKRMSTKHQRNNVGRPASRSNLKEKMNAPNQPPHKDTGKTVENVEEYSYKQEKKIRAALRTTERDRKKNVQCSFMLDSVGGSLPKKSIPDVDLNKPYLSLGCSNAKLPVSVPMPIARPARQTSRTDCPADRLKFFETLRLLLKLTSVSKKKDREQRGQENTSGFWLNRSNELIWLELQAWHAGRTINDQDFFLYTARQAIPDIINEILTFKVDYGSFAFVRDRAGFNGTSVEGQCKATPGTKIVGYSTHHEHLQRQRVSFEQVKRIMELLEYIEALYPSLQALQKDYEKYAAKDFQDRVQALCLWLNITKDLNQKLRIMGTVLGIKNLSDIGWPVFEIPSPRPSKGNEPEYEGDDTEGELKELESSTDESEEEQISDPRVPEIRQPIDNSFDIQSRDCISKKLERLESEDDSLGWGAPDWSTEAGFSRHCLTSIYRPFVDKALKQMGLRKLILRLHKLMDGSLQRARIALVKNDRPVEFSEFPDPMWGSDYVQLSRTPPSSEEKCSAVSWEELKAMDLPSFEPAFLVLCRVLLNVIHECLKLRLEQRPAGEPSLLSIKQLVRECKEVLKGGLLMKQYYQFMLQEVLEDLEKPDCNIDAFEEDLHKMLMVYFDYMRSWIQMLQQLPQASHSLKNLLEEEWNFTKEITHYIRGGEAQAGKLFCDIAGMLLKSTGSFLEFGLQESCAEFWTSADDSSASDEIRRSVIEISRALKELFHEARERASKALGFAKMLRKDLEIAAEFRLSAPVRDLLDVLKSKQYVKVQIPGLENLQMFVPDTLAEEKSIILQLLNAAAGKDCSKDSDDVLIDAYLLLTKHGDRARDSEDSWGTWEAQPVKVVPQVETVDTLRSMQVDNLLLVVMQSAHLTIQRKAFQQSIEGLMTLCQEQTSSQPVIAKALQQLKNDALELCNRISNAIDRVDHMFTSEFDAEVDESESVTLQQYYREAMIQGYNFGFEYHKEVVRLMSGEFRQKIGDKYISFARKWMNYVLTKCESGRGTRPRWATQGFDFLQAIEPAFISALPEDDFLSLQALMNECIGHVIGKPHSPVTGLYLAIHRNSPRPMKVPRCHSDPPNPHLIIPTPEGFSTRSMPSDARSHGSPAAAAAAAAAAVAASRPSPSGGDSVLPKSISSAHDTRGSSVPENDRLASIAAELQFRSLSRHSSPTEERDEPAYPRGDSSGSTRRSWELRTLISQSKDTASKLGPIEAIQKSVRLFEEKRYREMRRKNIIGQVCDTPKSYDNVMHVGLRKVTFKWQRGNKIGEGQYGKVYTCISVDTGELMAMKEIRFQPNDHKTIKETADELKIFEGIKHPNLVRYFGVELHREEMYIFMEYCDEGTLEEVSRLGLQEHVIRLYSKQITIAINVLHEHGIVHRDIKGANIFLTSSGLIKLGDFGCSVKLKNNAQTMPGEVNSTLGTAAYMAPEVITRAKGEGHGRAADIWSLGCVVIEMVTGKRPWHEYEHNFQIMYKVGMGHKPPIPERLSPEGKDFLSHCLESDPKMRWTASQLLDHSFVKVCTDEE
Chain of UniProt Q6P3R8 (whole entry, looked up): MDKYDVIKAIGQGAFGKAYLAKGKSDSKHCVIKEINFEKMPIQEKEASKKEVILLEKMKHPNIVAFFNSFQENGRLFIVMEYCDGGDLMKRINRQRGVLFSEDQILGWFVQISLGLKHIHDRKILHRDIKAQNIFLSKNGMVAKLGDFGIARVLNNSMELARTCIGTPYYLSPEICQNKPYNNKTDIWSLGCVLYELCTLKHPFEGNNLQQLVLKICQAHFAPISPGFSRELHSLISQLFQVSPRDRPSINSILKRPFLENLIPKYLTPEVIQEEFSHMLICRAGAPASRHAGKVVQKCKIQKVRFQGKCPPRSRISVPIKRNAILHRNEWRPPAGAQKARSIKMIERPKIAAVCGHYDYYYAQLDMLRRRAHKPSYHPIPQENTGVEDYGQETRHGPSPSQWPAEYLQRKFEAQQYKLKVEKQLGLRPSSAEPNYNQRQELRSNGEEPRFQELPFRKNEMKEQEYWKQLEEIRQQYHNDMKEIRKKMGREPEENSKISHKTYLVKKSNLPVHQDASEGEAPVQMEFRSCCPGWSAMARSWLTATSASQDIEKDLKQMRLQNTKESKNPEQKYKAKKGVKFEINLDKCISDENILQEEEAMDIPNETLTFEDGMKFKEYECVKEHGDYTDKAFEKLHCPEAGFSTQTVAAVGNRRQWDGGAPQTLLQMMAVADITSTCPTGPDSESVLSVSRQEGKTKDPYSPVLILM
Chain of UniProt Q09013 (whole entry, looked up): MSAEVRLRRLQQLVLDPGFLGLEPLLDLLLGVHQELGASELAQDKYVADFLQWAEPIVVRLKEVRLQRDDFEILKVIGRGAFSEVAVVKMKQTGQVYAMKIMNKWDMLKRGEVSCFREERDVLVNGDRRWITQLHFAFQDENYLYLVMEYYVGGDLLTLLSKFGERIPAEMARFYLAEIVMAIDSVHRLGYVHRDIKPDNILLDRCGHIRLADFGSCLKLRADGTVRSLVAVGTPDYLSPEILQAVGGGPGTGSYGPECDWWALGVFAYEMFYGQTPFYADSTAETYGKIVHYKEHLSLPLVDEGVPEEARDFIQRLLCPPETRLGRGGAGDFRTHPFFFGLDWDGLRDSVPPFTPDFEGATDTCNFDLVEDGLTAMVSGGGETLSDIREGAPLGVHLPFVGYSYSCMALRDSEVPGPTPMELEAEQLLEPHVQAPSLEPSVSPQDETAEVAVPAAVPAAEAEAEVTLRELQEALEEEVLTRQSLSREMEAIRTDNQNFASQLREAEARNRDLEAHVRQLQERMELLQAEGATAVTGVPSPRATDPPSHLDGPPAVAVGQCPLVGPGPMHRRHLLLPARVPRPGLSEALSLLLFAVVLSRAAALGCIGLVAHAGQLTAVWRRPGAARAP
Chain of UniProt Q9UQ88 (whole entry, looked up): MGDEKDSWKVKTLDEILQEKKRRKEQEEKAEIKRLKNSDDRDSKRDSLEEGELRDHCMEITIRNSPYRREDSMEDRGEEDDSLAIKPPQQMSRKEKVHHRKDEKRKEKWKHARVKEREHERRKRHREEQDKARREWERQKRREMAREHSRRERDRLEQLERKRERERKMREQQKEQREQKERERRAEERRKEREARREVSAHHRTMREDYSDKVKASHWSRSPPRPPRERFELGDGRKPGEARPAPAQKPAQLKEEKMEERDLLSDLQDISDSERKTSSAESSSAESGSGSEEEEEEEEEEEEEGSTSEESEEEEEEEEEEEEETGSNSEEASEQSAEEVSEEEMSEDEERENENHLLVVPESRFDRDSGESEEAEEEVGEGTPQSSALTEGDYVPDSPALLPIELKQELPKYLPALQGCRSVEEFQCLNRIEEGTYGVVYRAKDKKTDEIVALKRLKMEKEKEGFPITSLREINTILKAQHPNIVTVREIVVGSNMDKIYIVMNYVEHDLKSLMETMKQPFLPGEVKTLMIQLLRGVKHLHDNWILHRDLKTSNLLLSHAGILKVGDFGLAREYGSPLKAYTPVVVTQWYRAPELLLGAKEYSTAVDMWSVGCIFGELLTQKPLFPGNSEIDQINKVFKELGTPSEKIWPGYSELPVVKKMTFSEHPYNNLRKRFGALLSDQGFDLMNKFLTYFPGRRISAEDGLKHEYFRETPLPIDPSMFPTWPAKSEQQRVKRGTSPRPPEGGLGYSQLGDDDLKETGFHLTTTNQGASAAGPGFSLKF
Chain of UniProt P30291 (whole entry, looked up): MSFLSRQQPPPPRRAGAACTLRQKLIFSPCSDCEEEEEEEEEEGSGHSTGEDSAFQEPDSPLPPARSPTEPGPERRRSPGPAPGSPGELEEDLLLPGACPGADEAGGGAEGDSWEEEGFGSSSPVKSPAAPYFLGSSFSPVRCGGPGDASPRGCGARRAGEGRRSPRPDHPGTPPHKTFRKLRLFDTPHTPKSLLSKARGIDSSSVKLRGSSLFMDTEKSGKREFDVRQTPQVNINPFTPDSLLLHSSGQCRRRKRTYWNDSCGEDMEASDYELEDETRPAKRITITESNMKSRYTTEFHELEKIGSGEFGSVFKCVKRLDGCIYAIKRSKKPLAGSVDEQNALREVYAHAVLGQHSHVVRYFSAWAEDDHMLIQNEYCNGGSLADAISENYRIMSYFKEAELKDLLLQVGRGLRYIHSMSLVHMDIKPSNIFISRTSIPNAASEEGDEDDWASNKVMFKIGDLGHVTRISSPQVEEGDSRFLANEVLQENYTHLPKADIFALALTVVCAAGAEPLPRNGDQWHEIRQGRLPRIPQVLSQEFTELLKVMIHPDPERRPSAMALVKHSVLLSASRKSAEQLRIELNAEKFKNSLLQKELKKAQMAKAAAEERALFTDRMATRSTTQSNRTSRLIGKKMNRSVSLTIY
Chain of UniProt Q9BWU1 (whole entry, looked up): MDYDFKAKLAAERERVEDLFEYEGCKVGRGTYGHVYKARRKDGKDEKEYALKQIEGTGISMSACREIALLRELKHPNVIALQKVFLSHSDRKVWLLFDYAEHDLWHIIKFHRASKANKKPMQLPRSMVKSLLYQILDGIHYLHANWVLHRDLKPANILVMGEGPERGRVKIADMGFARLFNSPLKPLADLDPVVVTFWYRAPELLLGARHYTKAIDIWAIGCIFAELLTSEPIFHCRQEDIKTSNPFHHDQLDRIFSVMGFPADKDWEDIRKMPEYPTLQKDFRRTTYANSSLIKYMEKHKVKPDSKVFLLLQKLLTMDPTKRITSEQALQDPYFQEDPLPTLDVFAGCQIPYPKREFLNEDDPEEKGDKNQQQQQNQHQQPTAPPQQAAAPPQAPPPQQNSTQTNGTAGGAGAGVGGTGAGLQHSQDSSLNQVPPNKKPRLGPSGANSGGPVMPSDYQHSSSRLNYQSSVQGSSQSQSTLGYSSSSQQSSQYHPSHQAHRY

Study 1 — effect on: binding; action: competitor; technique: NanoBRET; cells: HEK293; quantity: normalized BRET
Structure (SMILES): CN1CCC[C@H]1COc1nc2c(c(N3CCN(S(C)(=O)=O)[C@@H](CC#N)C3)n1)CCN(c1cccc3cccc(Cl)c13)C2
KRAS G12D: GTPase KRas (KRAS, Homo sapiens, UniProt P01116, G12D)
KRAS G12D; 1.24 µM: 87.6% and 78.6% and 90.2%
KRAS G12D; 11.1 µM: 75.4% and 54.8% and 70.6%
GTPase KRas (KRAS, Homo sapiens, UniProt P01116, Q61H); 33.3 µM: 11.3% and 8.84% and 7.46%
GTPase KRas (KRAS, Homo sapiens, UniProt P01116, G13D); 1.24 µM: 41.5% and 36.8% and 41%
KRAS G12D; 45.7 nM: 97.3% and 94.1% and 93.9%
GTPase KRas (KRAS, Homo sapiens, UniProt P01116, Q61L); 11.1 µM: 27.3% and 22.6% and 21.8%
KRAS G12D; 15.2 nM: 92.5% and 91.5% and 94.8%
GTPase KRas (KRAS, Homo sapiens, UniProt P01116, Q61R); 3.7 µM: 69.5% and 64.7% and 91.9%

Study 2 — cell line: mouse MPNST tumor cells; technique: high-content nuclear imaging; item: cell number; concentration: 10 µM; time: 12 h; notes: mean of 2 replicates; reference: plate mean; reading: higher = more cells; quantity: nuclei count
COc1cc(C=Cc2ccc(OC)cc2OC)cc(OC)c1: -3.92 z-score
NS(=O)(=O)c1ccc(NC(=O)Nc2ccc(F)cc2)cc1: 2.95 z-score
COc1ccc2c(c1)C(C(=O)N(Cc1ccc(N(C)C)cc1)c1ccc(C(C)C)cc1)CCC2 (stereo not shown): 1.01 z-score
N#CC(c1ccccc1)(c1ccccc1)c1ccccc1Cl: 0.713 z-score
CCC1(C)CC(=O)NC1=O (stereo not shown): 0.0317 z-score
C#CCNc1nccc(-c2ccc(-n3ccnc3)cc2)n1: 1.95 z-score
Nc1nc(Cl)nc2c1ncn2[C@H]1C[C@H](O)[C@@H](CO)O1: -3.66 z-score
COc1ccc(CC(=O)NCc2ccccc2-c2ccccc2C(=O)NCc2ccc(F)cc2F)cc1: 0.204 z-score
CCOC(=O)C(C)(C)Oc1ccc(Cl)cc1: 0.905 z-score and 0.632 z-score
CN1CCOC(c2ccccc2)c2ccccc2C1 (stereo not shown): 4.18 z-score

Study 3 — effect on: enzyme activity; action: inhibitor; concentration: 0.5 µM; reference: control; quantity: remaining activity
Target: Dual specificity tyrosine-phosphorylation-regulated kinase 2 (DYRK2, Homo sapiens, UniProt Q92630)
Residues (Q92630 1-601): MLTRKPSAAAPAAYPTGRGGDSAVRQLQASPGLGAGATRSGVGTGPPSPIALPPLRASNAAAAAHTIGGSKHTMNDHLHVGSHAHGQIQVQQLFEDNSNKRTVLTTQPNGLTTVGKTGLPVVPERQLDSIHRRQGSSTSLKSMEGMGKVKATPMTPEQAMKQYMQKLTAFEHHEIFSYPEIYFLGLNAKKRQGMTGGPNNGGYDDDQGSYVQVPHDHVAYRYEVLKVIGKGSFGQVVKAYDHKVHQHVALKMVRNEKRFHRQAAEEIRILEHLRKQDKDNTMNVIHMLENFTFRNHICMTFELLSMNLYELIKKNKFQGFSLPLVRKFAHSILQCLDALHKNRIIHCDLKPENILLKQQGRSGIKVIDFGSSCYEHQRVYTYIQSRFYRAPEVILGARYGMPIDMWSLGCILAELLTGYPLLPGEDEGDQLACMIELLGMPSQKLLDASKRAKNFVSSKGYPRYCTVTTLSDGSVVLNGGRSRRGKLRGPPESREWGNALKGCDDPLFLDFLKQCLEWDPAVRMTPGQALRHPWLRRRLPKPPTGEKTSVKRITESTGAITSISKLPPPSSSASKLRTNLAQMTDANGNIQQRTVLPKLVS
CNC(=O)c1cc(Oc2ccc(NC(=O)Nc3ccc(Cl)c(C(F)(F)F)c3)cc2)ccn1: 98.9%
CN(C)c1ccc(C=C2C(=O)Nc3ccccc32)cc1: 100%
O=C1NC(=O)C(c2cn(CCCn3ccnc3)c3ccccc23)=C1Nc1ccccc1: 97.3%
NCCNc1ncc(C(N)=O)c(Nc2cccc(C(F)(F)F)c2)n1: 91.2%
O=C1NC(=O)C(c2cn(CCCO)c3ncccc23)=C1c1cnccn1: 81.7%
COc1cc2ncnc(Nc3ccc(Oc4ccccc4)cc3)c2cc1OC: 104%
COc1ccc(C(=O)Nc2sc3c(c2C(N)=O)CCCC3)cc1OC: 92%
O=C(O)c1ccc2c3c1cccc3c(=O)n1c3ccccc3nc21: 50.7%
CO[C@H]1C[C@@H]2CC[C@@H](C)[C@@](O)(O2)C(=O)C(=O)N2CCCC[C@H]2C(=O)O[C@H]([C@H](C)C[C@@H]2CC[C@@H](O)[C@H](OC)C2)CC(=O)[C@H](C)/C=C(\C)[C@@H](O)[C@@H](OC)C(=O)[C@H](C)C[C@H](C)/C=C/C=C/C=C/1C: 100%
O=C(CCCc1ccc(-c2ccccc2F)cc1)Nc1ccc(O)cc1: 91.8%
O=S(=O)(c1cccc2cnccc12)N1CCCNCC1: 97.9%
Nc1ncnc2n[nH]c(Nc3ccc(F)cc3)c12: 90.6%
CCOC(=O)c1c(C)[nH]c(/C=C2\C(=O)Nc3ccccc32)c1C: 92.4%
Cc1cccc(-c2[nH]c(C(C)(C)C)nc2-c2ccc3c(c2)OCO3)n1: 108%
Cc1ccc(Nc2nccc(N(C)c3ccc4c(C)n(C)nc4c3)n2)cc1S(N)(=O)=O: 98.8%
Cc1nc(-c2ccccc2)c(-c2ccncc2)o1: 98.6%

Study 4 — concentration: 1 µM; quantity: remaining binding
Compound: O=C(NC[C@@H]1[C@H]2CN(C(=O)OCc3cc(C(F)(F)F)cc(C(F)(F)F)c3)C[C@@H]12)c1ccc2[nH]nnc2c1
Cyclin-dependent kinase 11A (CDK11A, Homo sapiens, UniProt Q9UQ88); cell-free assay, competition with immobilised ligand: 100%
Receptor-type tyrosine-protein kinase FLT3 (FLT3, Homo sapiens, UniProt P36888, D835V/ITD); cell-free assay, competition with immobilised ligand: 85%
Hepatocyte growth factor receptor (MET, Homo sapiens, UniProt P08581, Y1235D); cell-free assay, competition with immobilised ligand: 76%
Wee1-like protein kinase (WEE1, Homo sapiens, UniProt P30291); cell-free assay, competition with immobilised ligand: 100%
Proto-oncogene tyrosine-protein kinase Src (SRC, Homo sapiens, UniProt P12931); cell-free assay, competition with immobilised ligand: 100%
Serine/threonine-protein kinase/endoribonuclease IRE1 (ERN1, Homo sapiens, UniProt O75460); cell-free assay, competition with immobilised ligand: 77%
Serine/threonine-protein kinase Nek5 (NEK5, Homo sapiens, UniProt Q6P3R8); cell-free assay, competition with immobilised ligand: 94%
Casein kinase I isoform alpha-like (CSNK1A1L, Homo sapiens, UniProt Q8N752); cell-free assay, competition with immobilised ligand: 86%
Mitogen-activated protein kinase kinase kinase 4 (MAP3K4, Homo sapiens, UniProt Q9Y6R4); cell-free assay, competition with immobilised ligand: 91%
Serine/threonine-protein kinase haspin (HASPIN, Homo sapiens, UniProt Q8TF76); cell-free assay, competition with immobilised ligand: 84%
Dual specificity mitogen-activated protein kinase kinase 4 (MAP2K4, Homo sapiens, UniProt P45985); cell-free assay, competition with immobilised ligand: 95%
MAP kinase-interacting serine/threonine-protein kinase 2 (MKNK2, Homo sapiens, UniProt Q9HBH9); cell-free assay, competition with immobilised ligand: 90%
Receptor-type tyrosine-protein kinase FLT3 (FLT3, Homo sapiens, UniProt P36888, D835H); cell-free assay, competition with immobilised ligand: 100%
Ephrin type-A receptor 7 (EPHA7, Homo sapiens, UniProt Q15375); cell-free assay, competition with immobilised ligand: 96%
Cyclin-dependent kinase 19 (CDK19, Homo sapiens, UniProt Q9BWU1); competition binding: 89%
Receptor-type tyrosine-protein kinase FLT3, autoinhibited (FLT3, Homo sapiens, UniProt P36888); cell-free assay, competition with immobilised ligand: 91%
Casein kinase I isoform delta (CSNK1D, Homo sapiens, UniProt P48730); cell-free assay, competition with immobilised ligand: 100%
Mitogen-activated protein kinase kinase kinase 19 (MAP3K19, Homo sapiens, UniProt Q56UN5); cell-free assay, competition with immobilised ligand: 100%
LIM domain kinase 2 (LIMK2, Homo sapiens, UniProt P53671); cell-free assay, competition with immobilised ligand: 83%
Myotonin-protein kinase (DMPK, Homo sapiens, UniProt Q09013); cell-free assay, competition with immobilised ligand: 94%
Serine/threonine-protein kinase SBK1 (SBK1, Homo sapiens, UniProt Q52WX2); cell-free assay, competition with immobilised ligand: 97%

For quick reference, copied from above (study 2):
COc1cc(C=Cc2ccc(OC)cc2OC)cc(OC)c1: -3.92 z-score
NS(=O)(=O)c1ccc(NC(=O)Nc2ccc(F)cc2)cc1: 2.95 z-score
COc1ccc2c(c1)C(C(=O)N(Cc1ccc(N(C)C)cc1)c1ccc(C(C)C)cc1)CCC2 (stereo not shown): 1.01 z-score
N#CC(c1ccccc1)(c1ccccc1)c1ccccc1Cl: 0.713 z-score
CCC1(C)CC(=O)NC1=O (stereo not shown): 0.0317 z-score
C#CCNc1nccc(-c2ccc(-n3ccnc3)cc2)n1: 1.95 z-score
Nc1nc(Cl)nc2c1ncn2[C@H]1C[C@H](O)[C@@H](CO)O1: -3.66 z-score
COc1ccc(CC(=O)NCc2ccccc2-c2ccccc2C(=O)NCc2ccc(F)cc2F)cc1: 0.204 z-score
CCOC(=O)C(C)(C)Oc1ccc(Cl)cc1: 0.905 z-score and 0.632 z-score
